Assay results collected from several papers.
Every numbered part comes from another study and shows a few of its results, in no order. Changes are numbered by the printed parent chain.
Chain of UniProt O15294 (whole entry, looked up): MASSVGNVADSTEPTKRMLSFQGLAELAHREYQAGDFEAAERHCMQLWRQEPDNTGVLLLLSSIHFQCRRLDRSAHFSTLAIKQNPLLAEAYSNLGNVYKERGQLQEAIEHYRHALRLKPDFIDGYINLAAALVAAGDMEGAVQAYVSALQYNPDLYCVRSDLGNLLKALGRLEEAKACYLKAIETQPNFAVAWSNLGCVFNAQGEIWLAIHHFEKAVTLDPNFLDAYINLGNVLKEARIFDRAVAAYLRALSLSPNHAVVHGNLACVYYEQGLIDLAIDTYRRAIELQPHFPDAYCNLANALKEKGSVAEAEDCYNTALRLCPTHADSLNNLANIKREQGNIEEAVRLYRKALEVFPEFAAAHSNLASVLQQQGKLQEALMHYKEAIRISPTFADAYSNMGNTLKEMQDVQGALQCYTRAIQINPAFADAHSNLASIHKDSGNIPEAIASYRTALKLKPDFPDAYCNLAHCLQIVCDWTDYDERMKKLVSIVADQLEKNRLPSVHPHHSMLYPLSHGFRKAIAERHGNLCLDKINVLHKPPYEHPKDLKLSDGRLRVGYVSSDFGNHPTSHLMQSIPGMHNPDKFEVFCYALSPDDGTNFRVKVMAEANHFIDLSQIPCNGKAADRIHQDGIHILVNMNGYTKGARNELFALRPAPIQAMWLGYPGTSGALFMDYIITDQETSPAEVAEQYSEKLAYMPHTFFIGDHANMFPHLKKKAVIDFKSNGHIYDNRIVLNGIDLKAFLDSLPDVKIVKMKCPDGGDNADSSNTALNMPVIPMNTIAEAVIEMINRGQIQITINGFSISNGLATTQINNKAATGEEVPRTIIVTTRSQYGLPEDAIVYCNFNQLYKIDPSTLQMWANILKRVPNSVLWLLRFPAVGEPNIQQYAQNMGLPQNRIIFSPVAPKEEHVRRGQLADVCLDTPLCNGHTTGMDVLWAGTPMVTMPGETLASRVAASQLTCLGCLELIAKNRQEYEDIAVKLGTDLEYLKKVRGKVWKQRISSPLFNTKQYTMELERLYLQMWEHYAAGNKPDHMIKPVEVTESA
Chain of UniProt Q5BJF2 (whole entry, looked up): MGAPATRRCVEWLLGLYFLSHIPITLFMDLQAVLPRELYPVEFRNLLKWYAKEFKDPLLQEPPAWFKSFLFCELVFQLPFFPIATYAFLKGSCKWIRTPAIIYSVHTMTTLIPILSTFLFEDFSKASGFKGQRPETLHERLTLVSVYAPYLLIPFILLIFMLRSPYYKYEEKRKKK

Set 1 — target: vanadate, free oxyanion; method: microfluidic competitive inhibition; matrix: in vitro, cell-free expressed; concentration: not given; direction: lower = stronger binding
Notes: derived from inhibition constants, unchanged parent 676 nM
Starting sequence: PafA, mature enzyme, eGFP fusion (Elizabethkingia meningoseptica, UniProt Q9KJX5); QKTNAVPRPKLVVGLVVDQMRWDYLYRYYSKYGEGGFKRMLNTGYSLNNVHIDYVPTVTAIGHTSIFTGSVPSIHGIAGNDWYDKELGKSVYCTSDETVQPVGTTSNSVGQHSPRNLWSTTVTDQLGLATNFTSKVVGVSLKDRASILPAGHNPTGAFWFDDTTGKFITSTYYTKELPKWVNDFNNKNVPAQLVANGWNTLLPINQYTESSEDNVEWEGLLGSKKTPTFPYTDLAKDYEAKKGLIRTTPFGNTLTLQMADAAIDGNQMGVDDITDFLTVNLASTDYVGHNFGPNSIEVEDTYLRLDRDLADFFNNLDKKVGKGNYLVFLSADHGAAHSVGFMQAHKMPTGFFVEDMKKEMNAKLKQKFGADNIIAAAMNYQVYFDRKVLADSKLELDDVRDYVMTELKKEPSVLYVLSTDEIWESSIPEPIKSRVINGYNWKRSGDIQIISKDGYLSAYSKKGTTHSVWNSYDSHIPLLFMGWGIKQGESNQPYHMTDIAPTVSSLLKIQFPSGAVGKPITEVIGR
Substitution | oxyanion analog dissociation constant [nM]
E359V | 606
W469G | 542
S426V | 554
T164G | 747
D183G | 657
Y45V | 655
T169G | 723
D473V | 755

Set 2 — target: CCND3, cyclin fold, Cln2 fusion (human); method: yeast growth competition, sequencing; matrix: yeast; notes: weak parent motif; baseline: not given; direction: higher = stronger binding
Starting sequence: viral docking peptide; KGVKRKLFAEDSS; partner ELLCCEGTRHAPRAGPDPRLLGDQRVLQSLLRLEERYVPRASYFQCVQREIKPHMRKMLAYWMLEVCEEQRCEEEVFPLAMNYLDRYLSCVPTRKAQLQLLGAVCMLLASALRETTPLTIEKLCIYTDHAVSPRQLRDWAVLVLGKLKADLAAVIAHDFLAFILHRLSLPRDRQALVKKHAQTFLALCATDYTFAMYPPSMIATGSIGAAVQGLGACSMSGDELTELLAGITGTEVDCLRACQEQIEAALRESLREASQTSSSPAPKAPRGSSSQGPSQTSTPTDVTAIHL
Substitution | normalised enrichment score
KGVKRKRFAEDSS [L7R] | 0.336
KGVKRKLFAEDSA [S13A] | 0.211
KGVKRKLFAWDSS [E10W] | -0.179
KSVKRKLFAEDSS [G2S] | 0.065
KGVKRKSFAEDSS [L7S] | 0.368
KGVSRKLFAEDSS [K4S] | 0.351
KGVCRKLFAEDSS [K4C] | -0.101
KGVHRKLFAEDSS [K4H] | 0.291

Other studies, line by line
Substance | tested on | assay | test system | conditions | scale | quantity | value
Cc1ccc(-n2nccn2)c(C(=O)N2CCN(c3nc4cc(Cl)ccc4o3)CC[C@H]2C)c1 | HaCaT | – | – | 100 µM, 36 h | – | viability | 27.1%
CNC(=O)c1cc(C(=O)NC2CC2)cn(Cc2ccccc2)c1=O | TMEM97 (Homo sapiens, UniProt Q5BJF2) | binding, radioligand binding | – | 10 µM | – | inhibition | 7.83%
TAPFYPPAYDIQVFK | OGT (Homo sapiens, UniProt O15294) | binding, phage display NGS | peptide | concentration not given, together with: OGT 1 µg | baseline: input library | enrichment fold change | 0.434

A few entries again (set 2):
Substitution | normalised enrichment score
KGVKRKSFAEDSS [L7S] | 0.368
KGVCRKLFAEDSS [K4C] | -0.101
KGVKRKLFAEDSA [S13A] | 0.211
